Assay results gathered from unrelated publications.
Numbered parts are unrelated; each lists some results of a single study. Substitutions count along the parent as printed.

Study 1 — technique: aptamer microarray, sandwich; form: DNA with 2'F-ANA; sample: in vitro; concentration: 200 nM; added: Cy3 exosite-II aptamer, 400 nM; reading: higher = stronger binding; strand: GGTTGGTGTGGTTGG
Target: Prothrombin, mature alpha-thrombin (F2, Homo sapiens, UniProt P00734)
Setting: whole 15-mer aptamer, many near background
Modification | mean fluorescence intensity [a.u.]
2'F-ANA at 2 3 4 5 8 10 13 15 | 88.4
2'F-ANA at 2 3 4 5 6 7 10 13 14 | 68.7
2'F-ANA at 1 2 5 7 8 9 12 | 129
2'F-ANA at 2 3 4 5 6 8 9 10 11 12 15 | 53.6
2'F-ANA at 3 5 7 12 13 14 | 64.1
2'F-ANA at 1 2 3 4 5 6 7 8 9 10 12 13 14 | 87.3
2'F-ANA at 1 3 4 5 7 8 9 10 11 | 110
2'F-ANA at 1 5 6 10 11 12 | 46.9
2'F-ANA at 2 4 5 7 12 14 | 46.2
2'F-ANA at 4 6 8 10 11 14 15 | 53.7
2'F-ANA at 3 6 9 11 13 | 874
2'F-ANA at 1 4 5 7 9 10 11 13 14 15 | 50.6
2'F-ANA at 1 2 4 5 9 10 12 13 | 48.2
2'F-ANA at 1 2 4 5 6 7 9 10 11 12 13 14 | 50.4
2'F-ANA at 1 3 4 6 9 11 14 15 | 59.3
2'F-ANA at 2 4 5 6 9 11 13 | 95.7
2'F-ANA at 3 6 7 8 10 12 14 15 | 393
2'F-ANA at 1 8 9 10 11 12 13 15 | 69.4
2'F-ANA at 1 3 4 8 9 12 13 | 298
2'F-ANA at 3 4 6 11 13 | 457
2'F-ANA at 2 6 8 10 11 12 15 | 138

Study 2 — target: CCNE2, cyclin fold, Cln2 fusion (human); technique: yeast growth competition, sequencing; sample: yeast; setting: weak parent motif; reference: not given; reading: higher = stronger binding
Parent: CDC6 docking peptide (human); TLKGRRLVFDNQL
Change | normalised enrichment score
L7Y | 1.11
V8A | -0.238
V8N | 1.16
L13S | 0.721
V8T | 0.29
R6S | -0.0908
R5A L7A | 0.0214
T1F | 0.000932
Q12G | 1.42
L2K | 0.438
D10M | 1.83
K3L | 0.816
N11A | 0.781
R5A | 0.421
Q12L | 0.5
V8H | 0.166
T1Y | 0.533
L13K | -0.122
L7N | -0.0915
G4I | 1.05

Study 3 — technique: DHFR PCA, deep sequencing; sample: yeast; added: (+)-ABA 200 µM; reference: wild-type fitted maximum; reading: higher = stronger binding
Target: ABI1, truncated, D143A, DHFR fusion (Arabidopsis thaliana)
Setting: methotrexate growth selection, single substitutions
Parent: PYL1, truncated, DHFR fusion (Arabidopsis thaliana); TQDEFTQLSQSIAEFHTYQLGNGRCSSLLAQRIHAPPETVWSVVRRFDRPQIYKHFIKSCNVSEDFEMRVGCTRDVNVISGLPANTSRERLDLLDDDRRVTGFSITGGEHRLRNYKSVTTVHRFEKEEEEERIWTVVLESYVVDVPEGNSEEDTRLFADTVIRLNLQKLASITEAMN
Change | relative binding score
S9Q | 97.7%
D95M | 86.6%
D75R | 99.6%
S11Y | 101%
G148C | 81.3%
E139I | 84.3%
S27K | 67.9%
L156H | 91%
H34V | 94.3%
I162S | 12.6%
S59G | 95.7%
C25D | 10.7%
N165P | 1.25%
G81I | 24.3%

Study 4 — technique: competition protein-binding microarray; form: double-stranded DNA, one strand shown; sample: in vitro; concentration: 2 µM; added: Cbf1 competitor, 0.05 µM; reading: higher = stronger binding; shared flanks, not repeated: … GTCTTGATTCGCTTGACGCTGCTG
Target: Phosphate system positive regulatory protein PHO4, full length, GST-tagged (PHO4, Saccharomyces cerevisiae, UniProt P07270, residues 1-312)
Setting: whole 60-bp probe, lowest competitor level
Target sequence (chain): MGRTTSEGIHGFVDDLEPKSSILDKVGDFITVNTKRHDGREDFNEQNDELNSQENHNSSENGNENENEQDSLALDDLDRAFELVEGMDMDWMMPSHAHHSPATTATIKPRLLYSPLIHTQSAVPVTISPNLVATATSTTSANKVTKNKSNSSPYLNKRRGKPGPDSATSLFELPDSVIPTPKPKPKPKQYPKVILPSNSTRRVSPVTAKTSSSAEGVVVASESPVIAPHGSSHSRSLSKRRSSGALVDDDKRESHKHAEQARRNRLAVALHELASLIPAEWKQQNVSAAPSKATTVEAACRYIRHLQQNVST
Strand | fluorescence intensity [a.u.]
TCCCAAGACCATACCCACGATGAAATTAAAGACACT | 7950
GTCTTGTCTCATTGTAGCGTGGGTGTCCCCACTTCA | 7120
GCATATGCCTTCTGGCACGTGTCCATCTGCATACTA | 19300
TGCGGGTACTTTGAGAGCGTGTCCTAACTTTGGCTT | 8060
GCCAGAGAGTTATTTCACGTGCTTTGTTCGGCCCGC | 13500
AAGGTATTGATAACCTGCGTGACGGTCTGGTGGAAT | 6550
AATCTGGTACCTTTCCATGTGGCACTTCAAAATTTT | 7420
CTTTCCCGATCTTGGCACGTGGGTGTAGCACATTTG | 18700
AAAGCGGTAATTTGTCCGGTGGGTGCAGATATCTAT | 4190
GTCTTGTCTCATTGTTACGTGGGTGTCCCCACTTCA | 6500
CATACCCAACCTTGACTGGTGGGTGAAGATATTTGT | 3640
GCTAATGCCCATTTGCACGTTCTAATAATGAAGGTC | 11300
CGGGGTTAAGTTTGTCACAGTACTTGCTTGCAGCAG | 3680
GTCGTTATGGGAACAGACGTGATGGCTATCCTAGAA | 5210
CCCAATGGTGGCTCACACTTTTAAACTTTCTAAATT | 4030
GAAGCGTATAAAACACACGTGGATTGGGGGTGCTTT | 17700
TGAGGATGGCTATGGCATGTGGTAGTGGGATTAGAG | 12700
AAAGCGGTAATTTGTGACGTGGGTGCAGATATCTAT | 6070
AAGAAGTACGACCGACACGTTAGTATGCCTTTGTTG | 6580
CTTTCCCGATCTTGATCCGTGGGTGTAGCACATTTG | 5610
CGTCCTAGTGATTGTAGGGTGGGTGCCATGAGGAAG | 6970
TGTAGAGCAAACCGTAGTGGTAATAGTGGTTGTTGA | 3730
CCTGCAGCTGGCTCATTCGTGCTTTACTCTCTTTCC | 5640
AAACTGCTGTCATAACGCGTGGTGATGTGGTTTTGC | 8360
GTTTCGTAAGTAGTGCGCGTGCAAATTTCGCCCGTT | 9260

Study 5 — technique: RNA Bind-n-Seq; form: RNA; sample: in vitro; concentration: 200 nM; setting: whole 134-nt RNA, ends assumed; added: 150 mM KCl; reference: input library; reading: higher = stronger binding
Target: Fragile X messenger ribonucleoprotein 1, C-terminal low-complexity region (Fmr1, Mus musculus, UniProt P35922)
Shared flanks, not repeated: GGGAGUUCUACAGUCCGACGAUC … UGGAAUUCUCGGGUGUCAAGG
Strand | log2 enrichment
AAAAGACAACACGCACCCACACAGACACAGAGGGAAGGGGUUGGGAUGGGGACAGGGUGCACAGCAGGGCGGGGUAGGACCCCAGCCCCU | 1.24
ACCAUGCAGGUGGGCAUCUUUGGGAAGUGGGGCAAGGGGGGGAUAGGGAGGGGGGUAACACUUUGAAAACAGGUGGUCCCAGGUCGUUUC | 0.799
AGUCCUGUGCUACACAUCGUAUGUACCGAAUCGGGGUGGGGAAAGGGGAAAAAGGGGAAAGUAUUAUGUUACGCCGUUCGGAUCUGCACU | 0.539
UGGGAGGUGGAUUUUGUUUAUUUUUUUAGCUCAUUUCCAGGGGUGGGAAUUUUUUUUUAAUAUGUGUCAUGAAUAAGGUUGUUUUUGAAA | 0.479
UCCUGUGCUACACAUCGUAUGUACCGAAUCGGGUUUUUUUGGGUUUGGGUUUUUUUGGGAAAGUAUUAUGUUACGCCGUUCGGAUCUGCA | 0.0511
UGGCCCGCCGUCCUGAGGAAGCUGAGGUUCACUGCGGUGCCCAAGAACCACCAGGCGGUCCGGAACCCGUGAGCGGCUGCCAGGGGCUCU | 0.205
UGGGAGGUGGAUUUUGUUUAUUUUUUUAGCUCAUUUCCAGGGGUGGGAAUUUUUUUUUAAUAUGUGUCAUGAAUAAAGUGGUUUUUGAAA | 0.136
AGUCCUGUGCUACACAUCGUAUGUACCGAAUCGGGAAAGGGUUUUUGGGUUUUUGGGAAAGUAUUAUGUUACGCCGUUCGGAUCUGCACU | 0.183
AAGUCCUGUGCUACACAUCGUAUGUACCGAAUCGGGAAAAGGGAAAAGGAAAAGGGAAAGUAUUAUGUUACGCCGUUCGGAUCUGCACUU | -0.481
CAAGUCCUGUGCUACACAUCGUAUGUACCGAAUCGGAAAAAAAGGUUUUUGGUGGAAAGUAUUAUGUUACGCCGUUCGGAUCUGCACUUC | -0.988
UCCUGUGCUACACAUCGUAUGUACCGAAUCGGGGAAAAAGGGAAAAAGGGGAAAAAGGGGAAAGUAUUAUGUUACGCCGUUCGGAUCUGC | 0.189
CAAACUUAAAGUCUCCCUUGCUCGGAAGAAGCCUCCAAUGAACAGUAUGCGGGGUGGUCUGCCACCCCGUGAGGGCAGAGGCAUGCCACC | -0.12
UCCUGUGCUACACAUCGUAUGUACCGAAUCGGGGAAAAAGGGGAAAAAGGAAAAAGGGGAAAGUAUUAUGUUACGCCGUUCGGAUCUGCA | 0.00718
UCCUGUGCUACACAUCGUAUGUACCGAAUCGGCCCCCCGGGGCCCCCCGGGGCCCCCCGGAAAGUAUUAUGUUACGCCGUUCGGAUCUGC | -0.498

Study 6 — technique: protein binding microarray; form: double-stranded DNA, one strand shown; sample: in vitro; concentration: not given; reference: not given; reading: higher = stronger binding
Target: Histone acetyltransferase KAT6A, winged helix 2, GST fusion (KAT6A, Homo sapiens, UniProt Q92794, residues 85-181)
Setting: 8-mer, flanks averaged, mean of 2 arrays, mostly near background
Construct (chain): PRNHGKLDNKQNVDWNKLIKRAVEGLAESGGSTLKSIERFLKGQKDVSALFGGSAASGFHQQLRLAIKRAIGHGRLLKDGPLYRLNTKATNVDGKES
Strand | E-score
CCGAGGAG | -0.0876
CCAGGAAA | 0.129
CAGAGTAC | 0.0416
CGTGGCTC | -0.00596
ACTGTGTG | -0.148
GGTCTTCA | -0.0518
CAACTCAA | -0.0858
AATGTCAC | 0.0795
CCCATCAG | -0.17
AGTAGCTA | -0.0292
ACCGACTA | -0.237
ACCCAACA | -0.142
GCCACGAA | 0.064
ACGGGACC | -0.0886
AATTGATC | 0.0469
CGGATGAA | 0.189
GATACCTA | -0.0778
ACGGAAGC | 0.0838
CCCCTGGC | 0.222

Single results of other studies
Substance | target | assay | test system | setting | scale | endpoint | result
PhoQ, residues 284 288 289 292 302 303 ASTSDA | PhoP, residues 12 14 15 18 19 LHSVW (Escherichia coli, UniProt P23836) | Sort-seq, refers to: YFP reporter | E. coli | PhoQ-PhoP variant library, added: 10 µM Mg2+ | reference: high Mg2+ state, higher = stronger signaling | fold induction | 11.7

For quick reference, copied from above (study 2):
Change | normalised enrichment score
R5A L7A | 0.0214
G4I | 1.05
T1F | 0.000932
L13K | -0.122
Q12L | 0.5
V8T | 0.29
V8A | -0.238
D10M | 1.83
T1Y | 0.533
V8N | 1.16
L7Y | 1.11
Q12G | 1.42
R5A | 0.421
R6S | -0.0908
